Published values of several laboratories.
A part holds a random share of what one study measured. Substitutions count along the parent as printed.

Block 1
Target: CCNE2, cyclin fold, Cln2 fusion (human)
Method: yeast growth competition, sequencing
Medium: yeast
Setting: weak parent motif
Reference: not given
Direction: higher = stronger binding
Endpoint: normalised enrichment score
Parent: EXO1 docking peptide (human); KPECGRVQRAIFQ; partner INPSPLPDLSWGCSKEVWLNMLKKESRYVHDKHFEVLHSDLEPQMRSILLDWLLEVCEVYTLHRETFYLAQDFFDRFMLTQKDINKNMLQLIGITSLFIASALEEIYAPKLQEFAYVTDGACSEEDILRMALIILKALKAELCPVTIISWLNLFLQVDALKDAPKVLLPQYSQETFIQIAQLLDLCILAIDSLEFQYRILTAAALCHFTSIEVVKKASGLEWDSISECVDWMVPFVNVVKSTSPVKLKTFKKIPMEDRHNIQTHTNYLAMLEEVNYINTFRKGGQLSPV
KPACGRVQRAIFQ [E3A]: 0.3
APECGRVQRAIFQ [K1A]: 0.226
KPECGRVARAIFQ [Q8A]: 0.48
KPECGAVQRAIFQ [R6A]: 0.246
KPECGRVQRAIAQ [F12A]: 0.228
KPECGRAQRAIFQ [V7A]: 0.191

Block 2
Target: RNA binding protein fox-1 homolog 2, RRM domain, GST-SBP tag (RBFOX2, Homo sapiens, UniProt O43251-10, residues 100-194)
Method: RNA Bind-n-Seq
Molecule type: RNA
Medium: in vitro
Concentration: 365 nM
Setting: natural RNA segment, single round, ends assumed
Reference: no-protein control
Direction: higher = stronger binding
Endpoint: RBNS enrichment (R)
All sequences stand within: GGGAGUUCUACAGUCCGACGAUC … UGGAAUUCUCGGGUGCCAA
Target sequence (chain): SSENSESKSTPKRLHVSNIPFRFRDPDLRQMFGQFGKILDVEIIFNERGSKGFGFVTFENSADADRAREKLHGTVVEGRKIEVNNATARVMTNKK
UGGGAUUUGCAGAUGUGUUUAGAAACACGCCCAGACCUUGAACCUUGGGUUCAUGGAUUAGUUUUGUAUCUAAAACAGGAAACAAGUCAGAUGAUGUGGUUUGUACACUU: 0.746
GACUCCCUGCUUGCCGCACACACCUCGGACAGUGAGCAACCCAGGCUCUGCCGUGUUCAGACGUCGGCUACUCCGUGGCUCCACCUGACCUCCGAAUGCUAUUUGCUCCC: 1.29
AGAUAUGCUAUUUCAUAACUUAUGUAGAAUGAUUUUUAUCUAUAUACUUUGUCCAUAAAAUUAUAAUUGUUUAUGUAAUUUUAUUGUUUCUUAUGGAAACAAUUGGAAAA: 0.796
CCAGGCCCUGGAAUCCUGAGACUCGCGUUUCCUUGGCCAGUGGUAACACAGGACGUGUGUGCGCAUGUGCAAGUGUGGAUGUAUGUGUGUGCGUGUGUUUUGCUCAUUUC: 1.32
CCUGUGUGUGCUGCUUGCUCCUGUUCUGUUCGCUUGCUCCCGUUCCGUUCGGCUUUUGCUUUGCGUUAGGGUGAAGACCCUAGCGUCCAGCUCCCCUCAACGCUAUAUUU: 0.556
UGUAACACUAAAGUAGGUGGUUCGUGUGUGUUCUCAUUACCUGGUUAUGAUAGAUAUGCACAUCAAAGCCUUUACCAGUAUCUUCCUGUAUUCCGUAUCAGAUUGCAAAG: 0.322
UACAUUGUUAAAGUAACUUGGCUUCCCAGGACUGGAAUUAUCAUGGAGCAGUUAGAAUUUUGAGAGUAAUUACAACAGGAUCACAUUCUGAAAGAGUCACAUUUUGUCAA: 0.637
GGGUUGGGACUGUGGAGGCGGCACCCUCUUUAUCCCCUGCUAUCACAGAUGAUCUGUUCACUUGAAGGUGAUUUUUAUCUUGUAGUCAGUGUUACAAGAAAAGGCUGGAA: 0.441

Block 3
Target: Sal-like protein 4, full length isoform B (SALL4, Homo sapiens, UniProt Q9UJQ4-2, residues 1-616)
Method: universal PBM
Molecule type: double-stranded DNA, one strand shown
Medium: in vitro
Concentration: not given
Setting: 8-mer, flanks averaged, mean of replicates
Direction: higher = stronger binding
Endpoint: E-score
AGGCCTGC: -0.276
GCTGTCTA: -0.104
CTCTTCAC: -0.0282
GAAGAACA: 0.111
CCGTCATA: 0.219
CATCACGA: 0.026
AAGGGTGA: -0.00232
GATTTTGC: -0.115
AAGAATGG: 0.0036
ACTTTCCT: -0.0795
AGTAGTGC: -0.154
ACCGGAAG: -0.103
AGCTTCTC: -0.18
GAGGACTC: -0.197
CGGTTTGC: -0.215
AGTCCGGA: -0.0966
CGCCGCCG: -0.368
GGTAAGAC: -0.16
ATAACGAC: 0.244
GGAGACCC: -0.289
AAGCTCCA: -0.102
TCCTGACA: -0.0293
GTTCACAA: 0.165
CAGGCCTA: -0.162
GCTCGGCC: -0.331

Block 4
Target: Prothrombin, mature alpha-thrombin (F2, Homo sapiens, UniProt P00734)
Method: aptamer microarray, sandwich
Molecule type: DNA with 2'F-ANA
Medium: in vitro
Concentration: 200 nM
Setting: whole 15-mer aptamer, many near background
Together with: Cy3 exosite-II aptamer, 400 nM
Direction: higher = stronger binding
Endpoint: mean fluorescence intensity
Sequence: GGTTGGTGTGGTTGG
2'F-ANA at 6 7 8 9 10 14: 164 a.u.
2'F-ANA at 1 3 4 5 7 9 10 12 13 14 15: 45.8 a.u.
2'F-ANA at 2 4 7 8 13 14: 180 a.u.
2'F-ANA at 1 4 5 7 11 13: 135 a.u.
2'F-ANA at 2 6 7 8 11 12: 508 a.u.
2'F-ANA at 1 4 6 7 8 9 11 12 14: 59.3 a.u.
2'F-ANA at 2 4 5 7 8 9 10 12 13: 49.5 a.u.
2'F-ANA at 1 2 5 6 7 10 11 13 14 15: 56.4 a.u.
2'F-ANA at 1 2 3 6 9 12 14 15: 75.6 a.u.
2'F-ANA at 1 2 3 6 9 12 13: 279 a.u.
2'F-ANA at 1 2 4 7 8 9 10 13 14 15: 50.6 a.u.
2'F-ANA at 3 4 5 9 14: 75.7 a.u.
2'F-ANA at 3 4 5 6 7 12 14 15: 52.8 a.u.
2'F-ANA at 1 2 6 7 8 10 11 13 15: 65.4 a.u.
2'F-ANA at 1 6 9 10 11 12 13 15: 72.7 a.u.
2'F-ANA at 2 5 6 7 8 11 13 14: 44.3 a.u.
2'F-ANA at 3 4 8 12 14: 448 a.u.
2'F-ANA at 1 3 8 9 12 15: 605 a.u.
2'F-ANA at 4 5 6 8 10 11 12 13 15: 51.9 a.u.
2'F-ANA at 1 2 5 9 11 14: 47.8 a.u.
2'F-ANA at 1 3 7 10 15: 88.3 a.u.
2'F-ANA at 2 4 9 11 13 14: 79.8 a.u.
2'F-ANA at 2 4 5 6 10 11 12 13: 79 a.u.

Excerpt of the above (block 4):
2'F-ANA at 3 4 5 6 7 12 14 15: 52.8 a.u.
2'F-ANA at 2 6 7 8 11 12: 508 a.u.
2'F-ANA at 4 5 6 8 10 11 12 13 15: 51.9 a.u.
2'F-ANA at 1 2 4 7 8 9 10 13 14 15: 50.6 a.u.
2'F-ANA at 1 2 5 9 11 14: 47.8 a.u.
2'F-ANA at 1 2 5 6 7 10 11 13 14 15: 56.4 a.u.
